Assay results from different studies.
TDP1: Tyrosyl-DNA phosphodiesterase 1 (TDP1, Homo sapiens, UniProt Q9NUW8)
UniProt Q9NUW8, sequence (whole entry, looked up): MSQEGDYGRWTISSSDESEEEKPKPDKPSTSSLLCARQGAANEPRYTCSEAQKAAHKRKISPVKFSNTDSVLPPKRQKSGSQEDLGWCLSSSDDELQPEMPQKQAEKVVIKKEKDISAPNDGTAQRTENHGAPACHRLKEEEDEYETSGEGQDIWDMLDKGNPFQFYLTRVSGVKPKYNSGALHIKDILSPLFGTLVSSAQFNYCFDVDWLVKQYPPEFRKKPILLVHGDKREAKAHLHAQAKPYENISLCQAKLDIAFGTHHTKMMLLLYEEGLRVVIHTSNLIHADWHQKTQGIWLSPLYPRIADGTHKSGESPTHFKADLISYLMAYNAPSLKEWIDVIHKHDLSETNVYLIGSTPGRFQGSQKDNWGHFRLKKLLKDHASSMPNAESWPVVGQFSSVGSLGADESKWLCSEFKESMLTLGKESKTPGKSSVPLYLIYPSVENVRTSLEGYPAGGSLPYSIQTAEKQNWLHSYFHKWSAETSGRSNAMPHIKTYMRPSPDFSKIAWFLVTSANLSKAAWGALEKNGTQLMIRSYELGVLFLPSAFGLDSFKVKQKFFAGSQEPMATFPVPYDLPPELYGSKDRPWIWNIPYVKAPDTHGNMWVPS
CDC42BPG: Serine/threonine-protein kinase MRCK gamma (CDC42BPG, Homo sapiens, UniProt Q6DT37)

`N#CCCn1cc(C=NOCc2ccc3nc(-c4ccccc4)c(Nc4ccc(C(=O)O)cc4)n3c2)c(-c2cccc(Br)c2)n1` has an inhibition of 4.7% (TDP1; enzyme activity, inhibitor; 100 µM, unpurified compound).
With `CNC(=O)C1CCN(c2cc(C)c(F)cc2NC(=O)c2ccc(-c3cc(O)ccc3C)c(C)c2)CC1` the remaining binding was 100% (CDC42BPG; KINOMEscan; 1 µM; relative to: DMSO control).
For `CCN1CCN(Cc2ccc(C(=O)Nc3ccc(C)c(NCc4cnc5[nH]ccc5c4OC)c3)cc2C(F)(F)F)CC1`, the remaining binding was 100% (CDC42BPG; KINOMEscan; 1 µM).
The inhibition of `CN1CCN(Cc2ccc(-c3ccc(CO[C@H]4CCC[C@@H]4NC(=O)c4cc(-c5cnn(C)c5)cnc4N)cc3)cc2)CC1` is reported as 12% (CDC42BPG; enzyme activity, inhibitor; 0.1 µM).
`CCOC(=O)N1CCN(c2ccccc2C=NOCc2ccc(-c3nc4cc(-c5ccccc5)ccn4c3Nc3ccc(C(=O)O)cc3)cc2)CC1` (mixture of isomers) has an inhibition of 11.7% (TDP1; enzyme activity, inhibitor; 100 µM, unpurified compound).
With `Nc1ncc2c(n1)-c1c([nH]c3ccc(C4=CCOCC4)cc13)CCC2` the remaining binding was 77% (CDC42BPG; scanMAX; 1 µM).
The inhibition of `C=CC(=O)N1Cc2nc(-c3cc(-c4cc(Cl)cnc4Cl)c(F)cc3F)n(-c3ccncn3)c2C1` is reported as 0.3% (CDC42BPG; cell-free assay; 1 µM).
`Cc1cnc2nc1Nc1cccc(c1)COC/C=C/COCc1cc(ccc1OCCN1CCOCC1)N2` gave a remaining binding of 95% (CDC42BPG; binding, competition with immobilised ligand; 0.1 µM).
With `CNC1C[S+]2CC[S+]3CC[S+](C1)[Ru-4]321([N]=C=S)[n]2c3ccc(OC)cc3c3c4c(c5cc(F)c[n+]1c5c32)C(=O)NC4=O` (stereo not drawn) the remaining binding was 93% (CDC42BPG; KinomeScan; 0.1 µM; relative to: untreated).
The remaining binding of `COc1cc(Nc2nccc(-c3cnn4nc(OC)ccc34)n2)cc(C(F)(F)F)c1` is reported as 91% (CDC42BPG; KINOMEscan; 1 µM, DMPK2 1000 nM).
The remaining binding of `Cc1ccc(-c2c(/C=C(\C#N)C(=O)NC(C)C)n(CCCO)c3ncnc(N)c23)cc1` is reported as 91% (CDC42BPG; cell-free assay, competition with immobilised ligand; 1 µM).
The inhibition of `NC(=O)C[C@H]1CCc2sc3ncnc(O[C@H]4CC[C@H](N5CCOCC5)CC4)c3c21` is reported as -1% (CDC42BPG; radioisotope kinase; 10 µM).

For quick reference, copied from above:
`CCOC(=O)N1CCN(c2ccccc2C=NOCc2ccc(-c3nc4cc(-c5ccccc5)ccn4c3Nc3ccc(C(=O)O)cc3)cc2)CC1` (mixture of isomers) has an inhibition of 11.7% (TDP1; enzyme activity, inhibitor; 100 µM, unpurified compound).
With `Nc1ncc2c(n1)-c1c([nH]c3ccc(C4=CCOCC4)cc13)CCC2` the remaining binding was 77% (CDC42BPG; scanMAX; 1 µM).
